Published values pooled from the literature.
A part holds a random share of what one study measured. Substitutions count along the parent as printed.
Sequence of UniProt Q8IU85 (whole entry, looked up): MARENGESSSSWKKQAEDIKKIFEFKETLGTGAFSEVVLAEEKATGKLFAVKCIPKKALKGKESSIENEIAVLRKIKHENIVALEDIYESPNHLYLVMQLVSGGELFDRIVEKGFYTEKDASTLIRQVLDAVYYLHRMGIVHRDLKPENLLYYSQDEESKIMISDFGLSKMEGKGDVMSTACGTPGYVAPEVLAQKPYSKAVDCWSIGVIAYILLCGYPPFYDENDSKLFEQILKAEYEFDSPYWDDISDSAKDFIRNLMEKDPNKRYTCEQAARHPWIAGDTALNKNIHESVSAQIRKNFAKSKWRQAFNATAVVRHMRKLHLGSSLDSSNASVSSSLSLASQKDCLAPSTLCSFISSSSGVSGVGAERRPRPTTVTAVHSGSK

Sample 1
Target: Homeobox protein Hox-C11, full length (HOXC11, Homo sapiens, UniProt O43248, residues 1-304)
Sequence of UniProt O43248 (whole entry, looked up): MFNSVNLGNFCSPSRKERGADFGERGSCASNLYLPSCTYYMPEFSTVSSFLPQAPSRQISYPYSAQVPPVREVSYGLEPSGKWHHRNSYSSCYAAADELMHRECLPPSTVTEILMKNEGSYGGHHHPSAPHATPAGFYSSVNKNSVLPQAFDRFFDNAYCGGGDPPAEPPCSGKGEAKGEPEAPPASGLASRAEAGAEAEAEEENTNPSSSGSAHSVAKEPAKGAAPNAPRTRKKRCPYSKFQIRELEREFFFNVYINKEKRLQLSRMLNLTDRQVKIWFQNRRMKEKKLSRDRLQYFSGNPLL
Technique: protein-binding microarray
Form: hairpin DNA
Medium: in vitro
Tested at: not given
Notes: whole hairpin DNA, median over replicate spots
Baseline: not given
Reading: higher = stronger binding
Sequence	median fluorescence
GAGGCCAAGTCGTAAAAGCCTCCTGGCTTTTACGACTTGGCCTCACACTC	9700 a.u.
GAGGCCAGGTCGTAGAAGCCTCCTGGCTTCTACGACCTGGCCTCACACTC	10600 a.u.
GAGGCCCGGTCGTTAAAGCCTCCTGGCTTTAACGACCGGGCCTCACACTC (5mC at 37)	10400 a.u.
GAGGCCAGGTCGTCGAAGCCTCCTGGCTTCGACGACCTGGCCTCACACTC (5mC at 30)	11100 a.u.
GAGGCCAGGTCGTAACGGCCTCCTGGCCGTTACGACCTGGCCTCACACTC (5mC at 16 28)	11100 a.u.
GAGGCCAGGTCGGTAAAGCCTCCTGGCTTTACCGACCTGGCCTCACACTC	10700 a.u.
GAGGCCAGCTCGTTAAAGCCTCCTGGCTTTAACGAGCTGGCCTCACACTC	9800 a.u.
GAGGCCAGGTCGTAAAAGCCTCCTGGCTTTTACGACCTGGCCTCACACTC (5mC at 11)	10000 a.u.

Sample 2
Target: CCNA2, cyclin fold, Cln2 fusion (human)
Technique: yeast growth competition, sequencing
Medium: yeast
Notes: strong parent motif
Baseline: not given
Reading: higher = stronger binding
Starting sequence: PKN2 docking peptide (human); VSAVRKLDFSDTM; partner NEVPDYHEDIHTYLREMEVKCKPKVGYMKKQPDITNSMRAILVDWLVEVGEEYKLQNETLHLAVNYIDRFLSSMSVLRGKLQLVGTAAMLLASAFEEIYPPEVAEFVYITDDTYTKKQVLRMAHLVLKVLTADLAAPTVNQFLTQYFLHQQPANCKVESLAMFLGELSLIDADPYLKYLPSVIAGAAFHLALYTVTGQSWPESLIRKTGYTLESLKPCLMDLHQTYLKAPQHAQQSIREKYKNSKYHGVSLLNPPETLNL
Substitution	normalised enrichment score
VSAWRKLDFSDTM [V4W]	4.99
VSAVRKLDFSGTM [D11G]	5.33
VSAVRKLDPSDTM [F9P]	0.0292
VSAVRKSDFSDTM [L7S]	0.281
VSATRKLDFSDTM [V4T]	3.96
VSAVRKLDFMDTM [S10M]	4.72
VSAPRKLDFSDTM [V4P]	3.53
VSAVRKLDFLDTM [S10L]	4.62

Sample 3
Target: Interferon regulatory factor 5, full length, phosphomimetic (IRF5, Homo sapiens, UniProt Q13568-2, residues 1-514, K96S/S451D/S453D/S456D/S462D)
Technique: protein-binding microarray
Form: double-stranded DNA, one strand shown
Medium: in vitro
Tested at: 250 nM
Notes: 60-bp whole probe
Together with: salmon DNA 0.4 mg/ml
Baseline: random background probes
Reading: higher = stronger binding
All sequences stand within: GCCTAGCAC … GTCTTGATTCGCTTGACGCTGCTG
Sequence	log fluorescence
TAAGCAAAAATGATTGGTTGGTGCTAG	0.211 z-score
TTAGGTAACGGGACTGGGTTAGTGCTA	-0.37 z-score
CTCCAACAAGGCTATCCCTCGTGCTAG	-0.423 z-score
GACGGTCTGCTTCTCCTGACGTGCTAG	-0.124 z-score
GCCGGTTTCCTTATCCTGACGTGCTAG	0.759 z-score
TTAGATCTCAGCTTCGATTAGTGCTAG	1.01 z-score
TTAGATCCCAGTATCGATTAGTGCTAG	7.01 z-score
GACAGTATCGGTATCGGGACGTGCTAG	8.59 z-score

Single results of other studies
Compound	target	test	setting	how to read	quantity	result
Cc1cncc2cccc(S(=O)(=O)N3CCCN(C(=O)CN)C[C@@H]3C)c12	Calcium/calmodulin-dependent protein kinase type 1D (CAMK1D, Homo sapiens, UniProt Q8IU85)	enzyme activity, inhibitor	0.5 µM	baseline: control	remaining activity	104%

Excerpt of the above (sample 2):
Substitution	normalised enrichment score
VSAVRKLDFLDTM [S10L]	4.62
VSAWRKLDFSDTM [V4W]	4.99
